Assay results of several laboratories.
Each numbered part is a random draw from the data of one study; scales do not carry over between parts.
Chain of UniProt P42336 (whole entry, unmodified, looked up): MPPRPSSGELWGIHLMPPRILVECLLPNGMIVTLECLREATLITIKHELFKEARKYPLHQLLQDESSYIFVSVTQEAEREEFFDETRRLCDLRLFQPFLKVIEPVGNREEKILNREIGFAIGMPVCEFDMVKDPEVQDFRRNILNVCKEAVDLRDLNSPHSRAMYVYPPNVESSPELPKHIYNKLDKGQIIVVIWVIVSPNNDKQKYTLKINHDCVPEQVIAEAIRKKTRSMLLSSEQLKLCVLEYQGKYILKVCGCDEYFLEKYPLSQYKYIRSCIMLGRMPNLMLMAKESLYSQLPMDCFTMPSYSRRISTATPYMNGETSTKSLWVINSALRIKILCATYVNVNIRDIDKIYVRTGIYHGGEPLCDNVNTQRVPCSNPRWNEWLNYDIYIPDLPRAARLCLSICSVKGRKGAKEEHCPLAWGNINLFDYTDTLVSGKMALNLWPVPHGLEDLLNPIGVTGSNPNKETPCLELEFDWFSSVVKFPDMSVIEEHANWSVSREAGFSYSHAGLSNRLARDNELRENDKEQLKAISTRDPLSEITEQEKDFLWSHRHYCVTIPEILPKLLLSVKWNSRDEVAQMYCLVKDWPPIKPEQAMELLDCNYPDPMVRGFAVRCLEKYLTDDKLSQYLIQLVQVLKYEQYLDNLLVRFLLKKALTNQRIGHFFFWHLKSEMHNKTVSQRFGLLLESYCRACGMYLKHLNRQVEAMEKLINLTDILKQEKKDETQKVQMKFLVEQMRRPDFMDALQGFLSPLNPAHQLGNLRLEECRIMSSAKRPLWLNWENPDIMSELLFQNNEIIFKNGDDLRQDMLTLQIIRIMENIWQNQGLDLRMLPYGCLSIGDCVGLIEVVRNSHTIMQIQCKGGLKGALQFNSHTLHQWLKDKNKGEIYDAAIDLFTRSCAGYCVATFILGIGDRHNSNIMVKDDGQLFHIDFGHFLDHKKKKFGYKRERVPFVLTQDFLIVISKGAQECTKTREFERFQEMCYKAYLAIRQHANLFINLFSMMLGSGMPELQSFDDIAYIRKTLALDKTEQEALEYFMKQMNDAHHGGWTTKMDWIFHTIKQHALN
Chain of UniProt Q06418 (whole entry, looked up): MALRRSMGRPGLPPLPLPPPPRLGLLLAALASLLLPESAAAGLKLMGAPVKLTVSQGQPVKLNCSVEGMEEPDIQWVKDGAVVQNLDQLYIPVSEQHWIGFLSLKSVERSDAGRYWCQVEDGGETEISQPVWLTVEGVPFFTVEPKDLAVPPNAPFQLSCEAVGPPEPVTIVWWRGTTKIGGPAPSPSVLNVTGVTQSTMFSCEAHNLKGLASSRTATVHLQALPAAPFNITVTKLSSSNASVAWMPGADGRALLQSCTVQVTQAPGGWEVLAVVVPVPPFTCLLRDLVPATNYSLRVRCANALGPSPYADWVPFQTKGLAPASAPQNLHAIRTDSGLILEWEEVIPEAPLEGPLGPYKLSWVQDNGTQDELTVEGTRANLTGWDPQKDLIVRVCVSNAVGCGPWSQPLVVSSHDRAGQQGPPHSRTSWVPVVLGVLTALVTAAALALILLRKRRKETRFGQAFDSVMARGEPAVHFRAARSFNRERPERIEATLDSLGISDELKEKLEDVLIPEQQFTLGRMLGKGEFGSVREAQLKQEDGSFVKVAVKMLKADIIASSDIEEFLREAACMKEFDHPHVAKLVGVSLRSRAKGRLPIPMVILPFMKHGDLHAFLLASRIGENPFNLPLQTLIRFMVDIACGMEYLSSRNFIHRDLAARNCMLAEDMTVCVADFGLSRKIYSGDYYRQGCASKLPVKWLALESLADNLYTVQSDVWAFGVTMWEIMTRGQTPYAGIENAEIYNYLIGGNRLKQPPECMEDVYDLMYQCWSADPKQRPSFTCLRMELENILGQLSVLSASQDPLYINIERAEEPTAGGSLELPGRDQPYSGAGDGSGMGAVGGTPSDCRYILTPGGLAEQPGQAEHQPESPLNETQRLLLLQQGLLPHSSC
Chain of UniProt P42680 (whole entry, looked up): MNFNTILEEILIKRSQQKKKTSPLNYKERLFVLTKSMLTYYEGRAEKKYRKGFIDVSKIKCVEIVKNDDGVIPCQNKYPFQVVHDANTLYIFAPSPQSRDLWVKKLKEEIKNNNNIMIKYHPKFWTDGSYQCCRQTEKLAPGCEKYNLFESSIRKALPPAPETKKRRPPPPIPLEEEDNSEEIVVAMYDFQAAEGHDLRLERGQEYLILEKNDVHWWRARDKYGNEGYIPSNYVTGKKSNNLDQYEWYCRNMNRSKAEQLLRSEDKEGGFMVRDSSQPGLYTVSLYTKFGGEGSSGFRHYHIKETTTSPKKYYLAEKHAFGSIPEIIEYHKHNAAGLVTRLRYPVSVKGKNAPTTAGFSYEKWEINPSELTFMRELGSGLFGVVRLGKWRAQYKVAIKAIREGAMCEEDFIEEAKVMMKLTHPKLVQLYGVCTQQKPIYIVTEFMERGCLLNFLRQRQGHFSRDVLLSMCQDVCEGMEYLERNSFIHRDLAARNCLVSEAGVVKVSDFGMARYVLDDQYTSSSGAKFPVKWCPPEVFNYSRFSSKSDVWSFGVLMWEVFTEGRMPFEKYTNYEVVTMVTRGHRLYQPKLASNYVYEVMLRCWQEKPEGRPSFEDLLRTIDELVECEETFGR
Chain of UniProt Q13882 (whole entry, looked up): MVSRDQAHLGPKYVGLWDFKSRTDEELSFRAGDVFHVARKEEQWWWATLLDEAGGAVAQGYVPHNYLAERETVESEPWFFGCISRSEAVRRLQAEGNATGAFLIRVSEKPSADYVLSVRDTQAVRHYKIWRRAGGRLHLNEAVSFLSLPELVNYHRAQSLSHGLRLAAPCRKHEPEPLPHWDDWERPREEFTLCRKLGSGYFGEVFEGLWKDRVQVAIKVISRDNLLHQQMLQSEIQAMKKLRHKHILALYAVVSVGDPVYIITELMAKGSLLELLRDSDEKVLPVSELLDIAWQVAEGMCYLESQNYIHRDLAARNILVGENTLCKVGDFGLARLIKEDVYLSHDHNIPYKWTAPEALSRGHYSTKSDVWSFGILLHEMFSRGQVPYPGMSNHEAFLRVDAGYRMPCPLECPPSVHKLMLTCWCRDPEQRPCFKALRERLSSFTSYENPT
Chain of UniProt O15146 (whole entry, looked up): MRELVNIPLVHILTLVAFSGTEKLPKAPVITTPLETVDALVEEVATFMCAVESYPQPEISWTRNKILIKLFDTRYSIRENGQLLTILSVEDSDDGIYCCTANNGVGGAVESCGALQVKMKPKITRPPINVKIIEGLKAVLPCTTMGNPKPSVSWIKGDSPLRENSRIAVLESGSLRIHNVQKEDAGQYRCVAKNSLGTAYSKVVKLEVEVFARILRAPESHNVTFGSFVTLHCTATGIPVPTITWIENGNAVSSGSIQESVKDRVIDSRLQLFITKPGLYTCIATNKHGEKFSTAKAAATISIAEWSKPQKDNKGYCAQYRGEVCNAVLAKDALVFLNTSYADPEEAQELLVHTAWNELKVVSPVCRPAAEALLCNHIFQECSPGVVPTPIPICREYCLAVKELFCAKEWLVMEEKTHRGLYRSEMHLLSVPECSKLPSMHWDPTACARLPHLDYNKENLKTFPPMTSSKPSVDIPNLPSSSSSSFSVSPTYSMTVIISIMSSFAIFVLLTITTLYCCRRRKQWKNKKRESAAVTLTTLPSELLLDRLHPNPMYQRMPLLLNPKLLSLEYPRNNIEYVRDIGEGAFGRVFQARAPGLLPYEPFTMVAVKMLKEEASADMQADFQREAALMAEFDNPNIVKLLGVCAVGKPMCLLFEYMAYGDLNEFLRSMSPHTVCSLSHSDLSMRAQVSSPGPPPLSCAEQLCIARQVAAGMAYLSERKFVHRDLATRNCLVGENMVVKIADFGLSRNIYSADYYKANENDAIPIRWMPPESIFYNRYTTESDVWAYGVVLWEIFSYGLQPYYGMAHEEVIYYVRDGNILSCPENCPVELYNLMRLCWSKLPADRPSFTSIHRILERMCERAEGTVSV
Chain of UniProt Q8IZF4 (whole entry, looked up): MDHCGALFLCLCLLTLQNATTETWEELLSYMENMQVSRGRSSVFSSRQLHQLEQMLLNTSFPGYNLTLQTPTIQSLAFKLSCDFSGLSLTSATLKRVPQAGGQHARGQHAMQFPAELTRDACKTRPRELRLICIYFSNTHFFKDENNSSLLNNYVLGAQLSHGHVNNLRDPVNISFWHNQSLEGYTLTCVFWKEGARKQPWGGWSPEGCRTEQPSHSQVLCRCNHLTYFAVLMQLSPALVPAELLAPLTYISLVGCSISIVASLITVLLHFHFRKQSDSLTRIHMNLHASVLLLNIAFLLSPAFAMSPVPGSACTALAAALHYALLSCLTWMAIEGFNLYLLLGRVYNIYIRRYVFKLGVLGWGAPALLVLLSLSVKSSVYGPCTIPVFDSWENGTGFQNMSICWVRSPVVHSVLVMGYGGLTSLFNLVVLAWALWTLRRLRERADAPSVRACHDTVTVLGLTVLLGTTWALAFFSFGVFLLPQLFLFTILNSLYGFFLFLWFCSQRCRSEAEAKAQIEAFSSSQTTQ

Set 1
Structure (SMILES): O=C(Nc1cnc(Oc2ccc(F)cc2)nc1)N1CCc2ncccc2[C@@H]1c1ccc(F)cc1
Read-out: cell-free assay
Method: competition with immobilised ligand
Concentration: 1 µM
target | remaining binding
CSNK1G2 (Homo sapiens, UniProt P78368) | 96%
PTK2 (Homo sapiens, UniProt Q05397) | 100%
CHEK1 (Homo sapiens, UniProt O14757) | 84%
TYRO3 (Homo sapiens, UniProt Q06418) | 100%
PRPF4B (Homo sapiens, UniProt Q13523) | 90%
CDC42BPA (Homo sapiens, UniProt Q5VT25) | 96%
CSNK1G1 (Homo sapiens, UniProt Q9HCP0) | 99%
FLT3 (Homo sapiens, UniProt P36888, R834Q) | 99%
PTK6 (Homo sapiens, UniProt Q13882) | 98%
BUB1 (Homo sapiens, UniProt O43683) | 92%
ACVR2B (Homo sapiens, UniProt Q13705) | 85%
LIM domain kinase 1 (LIMK1, Homo sapiens, UniProt P53667) | 99%
LRRK2 (Homo sapiens, UniProt Q5S007, G2019S) | 100%
CSF1R (Homo sapiens, UniProt P07333) | 78%
PAK5 (Homo sapiens, UniProt Q9P286) | 95%
MAPK6 (Homo sapiens, UniProt Q16659) | 100%
CDK11B (Homo sapiens, UniProt P21127) | 94%
EGFR (Homo sapiens, UniProt P00533, G719C) | 76%
PIK3CA (Homo sapiens, UniProt P42336, E545K) | 63%
Ribosomal protein S6 kinase alpha-5, C-terminal kinase domain (RPS6KA5, Homo sapiens, UniProt O75582) | 74%
MAP4K1 (Homo sapiens, UniProt Q92918) | 100%
PIK3CA (Homo sapiens, UniProt P42336, H1047L) | 92%
SYK (Homo sapiens, UniProt P43405) | 84%
PIK3CB (Homo sapiens, UniProt P42338) | 84%
FES (Homo sapiens, UniProt P07332) | 100%

Set 2
SMILES: NC(N)=NC(=O)c1nc(Cl)c(N2CCCCCC2)nc1N
Read-out: β-arrestin recruitment
Mode: agonist
Method: PRESTO-Tango
Concentration: 10 µM
Relative to: untreated
target | fold over basal
TACR2 (Homo sapiens, UniProt P21452) | 0.67 fold
G-protein coupled receptor 61 (GPR61, Homo sapiens, UniProt Q9BZJ8) | 0.62
HTR1B (Homo sapiens, UniProt P28222) | 1.22
Probable G-protein coupled receptor 162 (GPR162, Homo sapiens, UniProt Q16538) | 0.74
Adhesion G protein-coupled receptor F5 (ADGRF5, Homo sapiens, UniProt Q8IZF2) | 1.15
Adhesion G-protein coupled receptor G5 (ADGRG5, Homo sapiens, UniProt Q8IZF4) | 0.88
12-(S)-hydroxy-5,8,10,14-eicosatetraenoic acid receptor (GPR31, Homo sapiens, UniProt O00270) | 0.73
Probable G-protein coupled receptor 173 (GPR173, Homo sapiens, UniProt Q9NS66) | 0.94
G-protein coupled receptor 15 (Homo sapiens, UniProt P49685) | 0.75
Probable G-protein coupled receptor 25 (GPR25, Homo sapiens, UniProt O00155) | 0.86
HTR2A (Homo sapiens, UniProt P28223) | 0.34
CCR7 (Homo sapiens, UniProt P32248) | 0.95
FPR2 (Homo sapiens, UniProt P25090) | 1.13 fold
DRD1 (Homo sapiens, UniProt P21728) | 0.72
CHRM2 (Homo sapiens, UniProt P08172) | 0.94
TACR1 (Homo sapiens, UniProt P25103) | 0.75 fold
NPFFR1 (Homo sapiens, UniProt Q9GZQ6) | 1.52
GNRHR (Homo sapiens, UniProt P30968) | 0.6 fold
VIPR1 (Homo sapiens, UniProt P32241) | 0.83 fold

Set 3
SMILES: O=c1c(-c2ccc(F)cc2)c(-c2ccncc2)[nH]n1-c1ccc(Cl)cc1
Read-out: enzyme activity
Mode: inhibitor
Concentration: 0.5 µM
Relative to: control
target | remaining activity
TEC (Homo sapiens, UniProt P42680) | 112%
PRKCZ (Homo sapiens, UniProt Q05513) | 99%
CSNK1E (Homo sapiens, UniProt P49674) | 35%
PRKCQ (Homo sapiens, UniProt Q04759) | 119%
CAMK1 (Homo sapiens, UniProt Q14012) | 94.4%
CAMKK1 (Homo sapiens, UniProt Q8N5S9) | 98.5%
IGF1R (Homo sapiens, UniProt P08069) | 92.8%
SRPK1 (Homo sapiens, UniProt Q96SB4) | 97.9%
Cyclin-dependent kinase 2, with cyclin E (CDK2, Homo sapiens, UniProt P24941) | 89.1%
CLK2 (Homo sapiens, UniProt P49760) | 99%
FLT1 (Homo sapiens, UniProt P17948) | 81.3%
RPS6KA3 (Homo sapiens, UniProt P51812) | 94.3%
PAK1 (Homo sapiens, UniProt Q13153) | 92.3%
SGK2 (Homo sapiens, UniProt Q9HBY8) | 94.3%
EPHA6 (Homo sapiens, UniProt Q9UF33) | 57%
CLK1 (Homo sapiens, UniProt P49759) | 97%
CSNK1D (Homo sapiens, UniProt P48730) | 26.7%
SIK2 (Homo sapiens, UniProt Q9H0K1) | 101%
MUSK (Homo sapiens, UniProt O15146) | 102%
MAP3K20 (Homo sapiens, UniProt Q9NYL2) | 91.2%
TYRO3 (Homo sapiens, UniProt Q06418) | 105%
JAK1 (Homo sapiens, UniProt P23458) | 103%
EPHA2 (Homo sapiens, UniProt P29317) | 101%

Set 4
Target: Calcium/calmodulin-dependent protein kinase type II subunit alpha (CAMK2A, Homo sapiens, UniProt Q9UQM7)
Chain of UniProt Q9UQM7 (whole entry, looked up): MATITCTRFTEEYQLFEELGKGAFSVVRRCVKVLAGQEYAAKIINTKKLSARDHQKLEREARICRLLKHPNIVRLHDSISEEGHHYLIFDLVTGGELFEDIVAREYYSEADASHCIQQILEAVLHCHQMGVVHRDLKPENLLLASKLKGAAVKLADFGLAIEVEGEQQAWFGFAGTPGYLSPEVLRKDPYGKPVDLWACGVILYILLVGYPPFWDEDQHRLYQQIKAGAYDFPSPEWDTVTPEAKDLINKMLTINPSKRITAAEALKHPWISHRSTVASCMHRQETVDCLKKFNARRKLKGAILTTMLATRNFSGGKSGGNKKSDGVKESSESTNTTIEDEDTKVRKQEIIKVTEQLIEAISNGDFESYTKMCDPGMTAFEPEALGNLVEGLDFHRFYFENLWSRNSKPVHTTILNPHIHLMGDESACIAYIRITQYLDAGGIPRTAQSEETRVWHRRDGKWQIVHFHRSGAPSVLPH
Read-out: enzyme activity
Mode: inhibitor
Concentration: 10 µM
SMILES | inhibition
CC(C)(CO)[C@@H](O)C(=O)NCCC(=O)NCCSSCCNC(=O)CCNC(=O)[C@H](O)C(C)(C)CO | -33%
COc1cc(CCC(O)CCCCc2ccccc2)ccc1O (stereo not shown) | 6%
C[C@H](CCC(=O)O)[C@H]1CC[C@H]2[C@@H]3C(=O)C[C@@H]4C[C@H](O)CC[C@]4(C)[C@H]3C[C@H](O)[C@]12C | -127%
C[C@@H]1CC[C@@]2(OC1)O[C@H]1C[C@H]3[C@@H]4CC=C5C[C@@H](O[C@@H]6O[C@H](CO)[C@@H](O[C@@H]7O[C@H](CO)[C@@H](O)[C@H](O)[C@H]7O)[C@H](O)[C@H]6O[C@@H]6O[C@@H](C)[C@H](O)[C@@H](O)[C@H]6O)CC[C@]5(C)[C@H]4CC[C@]3(C)[C@H]1[C@@H]2C | -2%
C[C@@](Cc1ccc(O)c(O)c1)(NN)C(=O)O | -2%
COc1c2ccoc2c(O)c2oc(=O)ccc12 | -2%
CS(=O)(=O)Nc1cc2occ(NC=O)c(=O)c2cc1Oc1ccccc1 | -4%
O=C(/C=C/c1ccc(O)c(O)c1)O[C@@H](C(=O)O)[C@@H](O)C(=O)O | 31%
CCC1(c2ccc(O)cc2)NC(=O)N(C)C1=O (stereo not shown) | -18%
CCCCCCCCCCCCCC(=O)OC | 29%
C[C@@H]1O[C@@H](OC[C@H]2O[C@@H](OCCc3ccc(O)c(O)c3)[C@H](O)[C@@H](O)[C@@H]2OC(=O)/C=C/c2ccc(O)c(O)c2)[C@H](O)[C@H](O)[C@H]1O | -33%
O=C(O)c1cccc(O)c1 | -22%
